Assay results from different studies.
Numbered parts are unrelated; each lists some results of a single study. Substitutions count along the parent as printed.

Series 1
Target: Histone acetyltransferase KAT6A, winged helix 2, GST fusion (KAT6A, Homo sapiens, UniProt Q92794, residues 85-181)
Method: protein binding microarray
Form: double-stranded DNA, one strand shown
Medium: in vitro
Tested at: not given
Notes: 8-mer, flanks averaged, mean of 2 arrays, mostly near background
Baseline: not given
Direction: higher = stronger binding
Target sequence (chain): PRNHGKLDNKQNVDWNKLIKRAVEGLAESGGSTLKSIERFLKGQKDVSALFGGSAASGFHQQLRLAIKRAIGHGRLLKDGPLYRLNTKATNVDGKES
Oligonucleotide	E-score
CTGATGTC	-0.00893
CCTGGATC	-0.0513
CATGATCA	-0.0166
AACCTCTA	-0.0811
AGAGCATA	-0.0798
CCGCCGCA	0.161
TGAAACCA	0.0722
TATTCCCA	0.0601
CACCATTA	-0.162

Series 2
Target: CCNE1, cyclin fold, Cln2 fusion (human)
Method: yeast growth competition, sequencing
Medium: yeast
Notes: weak parent motif
Baseline: not given
Direction: higher = stronger binding
Starting sequence: SLBP docking peptide (human); ARYKRKLLINDFG
Change	normalised enrichment score
R5S	1.08
A1S	0.911
Y3W	0.659
K4Q	0.336
R5A	0.653
A1I	0.551
R5I	0.503
L8Y	0.504

Series 3
Target: RING finger protein unkempt homolog, zinc fingers 1-6, GST-SBP tag (UNK, Homo sapiens, UniProt Q9C0B0, residues 30-357)
Method: RNA Bind-n-Seq
Form: RNA
Medium: in vitro
Tested at: not given
Notes: RNA with constant flanks, human-mouse chimeric sites, ends assumed
Baseline: input RNA pool
Direction: higher = stronger binding
Residues (chain): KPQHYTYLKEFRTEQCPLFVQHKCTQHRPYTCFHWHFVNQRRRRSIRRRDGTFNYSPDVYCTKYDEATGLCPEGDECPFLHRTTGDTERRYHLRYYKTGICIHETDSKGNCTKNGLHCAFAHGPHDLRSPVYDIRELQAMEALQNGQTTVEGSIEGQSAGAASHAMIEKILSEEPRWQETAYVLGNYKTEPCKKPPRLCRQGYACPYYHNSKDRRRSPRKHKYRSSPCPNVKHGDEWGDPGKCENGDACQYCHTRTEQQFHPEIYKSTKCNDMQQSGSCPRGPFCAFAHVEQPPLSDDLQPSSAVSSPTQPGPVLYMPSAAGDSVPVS
Oligonucleotide	bound/input enrichment [ratio]
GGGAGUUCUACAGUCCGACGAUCGGGACUGAUUCAUCCCAAGGACAGGCCGCCCAGUCUGGUGUUUGGAAUGAUGACAGUAUGGAAGGGCCUAGUCAAAAUGUUGAAGCUGAGUCAAUUCAGGAUGCCAUGAGUAUGGAAGAGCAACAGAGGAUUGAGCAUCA	0.194
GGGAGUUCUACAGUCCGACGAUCAUGGAGAAGGAUUCUCUGCCCCGCUUUGUGCGCUCUGAAUUUUAUAAGGAGCUAAUCAAGUAGUCAUCUGGUCAGGCUAUGAAAUCAUGCCCUGUGAUAUUUCCUCCAUCCUUUGUAGCACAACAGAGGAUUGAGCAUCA	0.239
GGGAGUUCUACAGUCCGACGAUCUUUCUACUGCAGCAAACGAUGCUAAGAAUUAAGGAUCCUAAGAAGUCACUGGAUUUUUAUACGAGGGUUCUUGGACUGACCCUCCUGCAGAAGCUUGACUUCCCUGCUAUGAAGUUCUCGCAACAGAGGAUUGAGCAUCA	0.219
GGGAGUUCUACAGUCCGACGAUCAAUUUCCUGUCAUACUUUUUAGACAUUCACAUCAGACUUACAGAGCACCUGGCCACAUUCUAGUUUUGAAUUAUUUCUCAGCUAUGGAUAUGAUCAAAUGAGAACACUGCUUAACUAAUGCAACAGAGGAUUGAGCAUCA	0.435
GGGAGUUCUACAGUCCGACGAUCUGUAGUUGAUCCCCUGCUCAUUUUUCUCUUUUCUUUCUUUCCUUUAGGAAAAGCCUAAAGAUUAGGUUGUAAGAAAAACAGAAGCCAUGUUUCGAAGACCUGUGUUACAGGUAUUUCGUCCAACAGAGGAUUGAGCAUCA	0.053
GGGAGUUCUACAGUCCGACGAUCCACGUGUCUGCAGUACUUGAUGUGGACUACUCUCCCACUGGGAAGGAAUUUGUGUCUGCUAGUUUCGAUAAGUCUAUUAGAAUCUUUCCUGUGGACAAAAGUCGAAGCAGGGAAGUGUAUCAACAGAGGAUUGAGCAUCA	1.47
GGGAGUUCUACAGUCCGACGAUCUCGGAUGAGGUGCUGGGUCACUUUUCAUAUCCAGAUCCUUCACAGUGGACAGAUGAAGAACUGGGAAUCCCUCCUGAUGACGAGGACUGACACUGUAAACUCUCUGGCACUCUGUACGCACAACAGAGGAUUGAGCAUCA	0.374
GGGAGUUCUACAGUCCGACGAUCCUUUUUAAGAAGAUAUGUGAUGGGAUCUUUUAUACCCCUCAGUACUUAAACCCUUCAGUGAUUAGCCUUUUGAAACAUAUGCUGCAGGUGGAUCCCAUGAAGAGGGCCGCAAUAAAAGAUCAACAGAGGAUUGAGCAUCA	0.559

Further values, each from its own experiment
Molecule	target	test	test system	setting	scale	endpoint	value
PhoQ, residues 284 288 289 292 302 303 GANMMA	PhoP, residues 12 14 15 18 19 LHTVM (Escherichia coli, UniProt P23836)	Sort-seq, refers to: YFP reporter	E. coli	PhoQ-PhoP variant library, together with: 10 µM Mg2+	baseline: high Mg2+ state, higher = stronger signaling	fold induction	15.3

A few entries again (series 3):
Oligonucleotide	bound/input enrichment [ratio]
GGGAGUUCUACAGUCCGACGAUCAUGGAGAAGGAUUCUCUGCCCCGCUUUGUGCGCUCUGAAUUUUAUAAGGAGCUAAUCAAGUAGUCAUCUGGUCAGGCUAUGAAAUCAUGCCCUGUGAUAUUUCCUCCAUCCUUUGUAGCACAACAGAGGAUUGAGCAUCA	0.239
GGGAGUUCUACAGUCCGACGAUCUGUAGUUGAUCCCCUGCUCAUUUUUCUCUUUUCUUUCUUUCCUUUAGGAAAAGCCUAAAGAUUAGGUUGUAAGAAAAACAGAAGCCAUGUUUCGAAGACCUGUGUUACAGGUAUUUCGUCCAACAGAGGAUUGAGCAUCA	0.053
